# Measured values of several laboratories.
# Compare with care: the assays were run in different laboratories. “And” joins repeats or separate records; there may be more than shown.
Structure (SMILES),tested on,assay,test system,setting,how to read,endpoint,result
CNC(=O)CC1C(=O)N(C2CCN([C@H]3CC[C@@H](C(C)C)CC3)CC2)c2ccccc21 (stereo partly drawn),nociceptin receptor (human),BRET,,,"reference: N/OFQ as unbiased standard, G protein over β-arrestin 2",bias factor,0.16
CC[C@H](C)[C@H](NC(=O)[C@H](C)NC(=O)[C@H](CCC(=O)O)NC(=O)[C@H](CCC(=O)O)NC(=O)[C@H](CC(C)C)NC(=O)[C@H](CCCCN)NC(=O)[C@H](CCCCN)NC(=O)[C@H](CCSC)NC(=O)[C@H](CCC(=O)O)NC(=O)[C@H](Cc1ccc(O)cc1)NC(=O)[C@H](CCC(=O)O)NC(=O)[C@H](CC(C)C)NC(=O)[C@H](CC(=O)O)NC(=O)[C@H](CC(C)C)NC(=O)[C@H](Cc1ccccc1)NC(=O)[C@H](Cc1ccc(O)cc1)NC(=O)[C@@H](NC(=O)[C@H](CC(N)=O)NC(=O)[C@@H](NC(=O)[C@H](CCC(N)=O)NC(=O)[C@H](CC(=O)O)NC(=O)[C@H](CC(C)C)NC(=O)[C@@H](N)CO)[C@@H](C)CC)C(C)C)C(=O)N[C@@H](CCCCN)C(=O)N[C@@H](CCCCN)C(=O)N[C@@H](CC(C)C)C(=O)N[C@@H](CCC(=O)O)C(=O)N[C@@H](CCC(=O)O)C(=O)N[C@@H](C)C(=O)N[C@@H](Cc1ccc(O)cc1)C(=O)N[C@H](C(=O)N[C@@H](CC(=O)O)C(=O)N[C@@H](CC(C)C)C(=O)N[C@@H](CCCCN)C(=O)N[C@@H](CCC(=O)O)C(=O)N[C@@H](CC(C)C)C(=O)O)[C@@H](C)CC,SARS-CoV-2 Gamma pseudovirus,"pseudovirus infection, inhibitor, luciferase",Caco-2,"24 h, dual mutations",,IC50,1190 nM
CC(C)C[C@@H]1NC(=O)[C@H](CCCCN)NC(=O)[C@H](Cc2ccc(O)cc2)NC(=O)CNC(=O)[C@@H]2CSSC[C@H](NC1=O)C(=O)N[C@@H](Cc1ccccc1)C(=O)N1C[C@H](O)C[C@H]1C(=O)N[C@H](C(N)=O)CSSC[C@H](NC(=O)[C@@H](NC(=O)[C@@H](N)CO)C(C)C)C(=O)N2,,behavioural effects,Aplysia californica,"injection, 10 nmol",,onset of symptoms,~5 min
O=C(NC1CCN(c2ncnc3[nH]cnc23)CC1)c1cccc(NS(=O)(=O)c2ccc([N+](=O)[O-])cc2)c1,SARS-CoV-2,,Wuhan-Hu-1,0.03048 µM,reference: untreated infected cells,relative infection,81.4%
CC[C@H](C)[C@H](NC(=O)[C@H](CC(C)C)NC(=O)[C@H](Cc1ccc(OP(=O)(O)O)cc1)NC(=O)[C@H](CCC(=O)O)NC(=O)[C@H](CC(=O)O)NC(=O)[C@H](C)NC(=O)[C@H](CC(=O)O)NC(=O)[C@@H](NC(=O)[C@H](CC(C)C)NC(=O)CCCC[C@@H]1SC[C@@H]2NC(=O)N[C@@H]21)C(C)C)C(=O)N1CCC[C@H]1C(=O)N[C@@H](CCC(N)=O)C(=O)N[C@@H](CCC(N)=O)C(=O)NCC(=O)O,YopH wild type,binding,,,reference: wild type over mutant enzyme,apparent KD ratio,4.5 fold
CCN(CC)Cc1onc(-c2cccc(Cl)c2)c1-c1ccnc(N[C@@H]2CCN(C(=O)c3ccn(C)n3)C2)n1,Plasmodium falciparum,parasite growth,3D7 A10,"concentration not given, asexual blood stage",,activity class,active
CC[C@H](C)[C@H](NC(=O)[C@H](C)NC(=O)[C@H](CCC(=O)O)NC(=O)[C@H](CCC(=O)O)NC(=O)[C@H](CC(C)C)NC(=O)[C@H](CCCCN)NC(=O)[C@H](CCCCN)NC(=O)[C@H](CCSC)NC(=O)[C@H](CCC(=O)O)NC(=O)[C@H](Cc1ccc(O)cc1)NC(=O)[C@H](CCC(=O)O)NC(=O)[C@H](CC(C)C)NC(=O)[C@H](CC(=O)O)NC(=O)[C@H](CC(C)C)NC(=O)[C@H](Cc1ccccc1)NC(=O)[C@H](Cc1ccc(O)cc1)NC(=O)[C@@H](NC(=O)[C@H](CC(N)=O)NC(=O)[C@@H](NC(=O)[C@H](CCC(N)=O)NC(=O)[C@H](CC(=O)O)NC(=O)[C@H](CC(C)C)NC(=O)[C@@H](N)CO)[C@@H](C)CC)C(C)C)C(=O)N[C@@H](CCCCN)C(=O)N[C@@H](CCCCN)C(=O)N[C@@H](CC(C)C)C(=O)N[C@@H](CCC(=O)O)C(=O)N[C@@H](CCC(=O)O)C(=O)N[C@@H](CO)C(=O)N[C@@H](Cc1ccc(O)cc1)C(=O)N[C@H](C(=O)N[C@@H](CC(=O)O)C(=O)N[C@@H](CC(C)C)C(=O)N[C@@H](CCCCN)C(=O)N[C@@H](CCC(=O)O)C(=O)N[C@@H](CC(C)C)C(=O)O)[C@@H](C)CC,SARS-CoV-2 XBB.1.5 pseudovirus,"pseudovirus infection, inhibitor, luciferase",Caco-2,24 h,,IC50,185 nM
Cc1ccc(S(=O)(=O)Nc2cccc(C(=O)NC3CCN(c4ncnc5[nH]cnc45)CC3)c2)cc1,monkeypox virus E1/E12,,,50 µM,,inhibition,16.3% and 17%
CC#Cc1ccc2c(=O)[nH]nc(Cc3ccc(F)c(C(=O)N4CCN(c5ccc(C#N)cn5)CC4)c3)c2c1,CT26,"western blot, refers to: pSTAT1 (Tyr701)",,300 nM,,onset time,4 h
CC[C@H](C)[C@H](NC(=O)[C@H](C)NC(=O)[C@H](CCC(=O)O)NC(=O)[C@H](CCC(=O)O)NC(=O)[C@H](CC(C)C)NC(=O)[C@H](CCCCN)NC(=O)[C@H](CCCCN)NC(=O)[C@H](CCSC)NC(=O)[C@H](CCC(=O)O)NC(=O)[C@H](Cc1ccc(O)cc1)NC(=O)[C@H](CCC(=O)O)NC(=O)[C@H](CC(C)C)NC(=O)[C@H](CC(=O)O)NC(=O)[C@H](CC(C)C)NC(=O)[C@H](Cc1ccccc1)NC(=O)[C@@H](NC(=O)[C@@H](NC(=O)[C@H](CC(N)=O)NC(=O)[C@@H](NC(=O)[C@H](CCC(N)=O)NC(=O)[C@H](CC(=O)O)NC(=O)[C@H](CC(C)C)NC(=O)[C@H](CO)NC(=O)[C@H](CC(C)C)NC(=O)[C@H](CC(=O)O)NC(=O)[C@@H]1CCCN1C(=O)[C@H](C)N)[C@@H](C)CC)C(C)C)[C@@H](C)O)C(=O)N[C@@H](CCCCN)C(=O)N[C@@H](CCCCN)C(=O)N[C@@H](CC(C)C)C(=O)N[C@@H](CCC(=O)O)C(=O)N[C@@H](CCC(=O)O)C(=O)N[C@@H](CO)C(=O)N[C@@H](Cc1ccc(O)cc1)C(=O)N[C@H](C(=O)N[C@@H](CC(=O)O)C(=O)N[C@@H](CC(C)C)C(=O)N[C@@H](CCCCN)C(=O)N[C@@H](CCC(=O)O)C(=O)N[C@@H](CC(C)C)C(=O)O)[C@@H](C)CC,SARS-CoV-2 Delta pseudovirus,"pseudovirus infection, inhibitor, luciferase",Caco-2,24 h,,IC50,345 nM
COc1ccc(S(=O)(=O)Nc2cccc(C(=O)NC3CCN(c4ncnc5[nH]cnc45)CC3)c2)cc1,SARS-CoV-2,,Wuhan-Hu-1,0.823 µM,reference: untreated infected cells,relative infection,60.1%
CC[C@H](C)[C@H](NC(=O)[C@H](C)NC(=O)[C@H](CCC(=O)O)NC(=O)[C@H](CCC(=O)O)NC(=O)[C@H](CC(C)C)NC(=O)[C@H](CCCCN)NC(=O)[C@H](CCCCN)NC(=O)[C@H](CCSC)NC(=O)[C@H](CCC(=O)O)NC(=O)[C@H](Cc1ccc(O)cc1)NC(=O)[C@H](CCC(=O)O)NC(=O)[C@H](CC(C)C)NC(=O)[C@H](CC(=O)O)NC(=O)[C@H](CC(C)C)NC(=O)[C@H](Cc1ccccc1)NC(=O)[C@H](Cc1ccccc1)NC(=O)[C@@H](NC(=O)[C@H](CC(N)=O)NC(=O)[C@@H](NC(=O)[C@H](CCC(N)=O)NC(=O)[C@H](CC(=O)O)NC(=O)[C@H](CC(C)C)NC(=O)[C@@H](N)CO)[C@@H](C)CC)C(C)C)C(=O)N[C@@H](CCCCN)C(=O)N[C@@H](CCCCN)C(=O)N[C@@H](CC(C)C)C(=O)N[C@@H](CCC(=O)O)C(=O)N[C@@H](CCC(=O)O)C(=O)N[C@@H](C)C(=O)N[C@@H](Cc1ccc(O)cc1)C(=O)N[C@H](C(=O)N[C@@H](CC(=O)O)C(=O)N[C@@H](CC(C)C)C(=O)N[C@@H](CCCCN)C(=O)N[C@@H](CCC(=O)O)C(=O)N[C@@H](CC(C)C)C(=O)O)[C@@H](C)CC,SARS-CoV-2 Gamma pseudovirus,"pseudovirus infection, inhibitor, luciferase",Caco-2,"24 h, dual mutations",,IC50,550 nM
CC(C)[C@H]1CC[C@@H](N2CCC3(CC2)C(=O)NCN3c2ccccc2)CC1,nociceptin receptor (human),BRET,,,"reference: N/OFQ as unbiased standard, G protein over β-arrestin 2",bias factor,0.93
O=C(NC1CCN(c2ncnc3[nH]cnc23)CC1)c1cccc(S(=O)(=O)Nc2ccc(Cl)cc2)c1,SARS-CoV-2,,Wuhan-Hu-1,7.407 µM,reference: untreated infected cells,relative infection,28.1%
CC[C@H](C)[C@H](NC(=O)[C@H](C)NC(=O)[C@H](CCC(=O)O)NC(=O)[C@H](CCC(=O)O)NC(=O)[C@H](CC(C)C)NC(=O)[C@H](CCCCN)NC(=O)[C@H](CCCCN)NC(=O)[C@H](CCSC)NC(=O)[C@H](CCC(=O)O)NC(=O)[C@H](Cc1ccc(O)cc1)NC(=O)[C@H](CCC(=O)O)NC(=O)[C@H](CC(C)C)NC(=O)[C@H](CC(=O)O)NC(=O)[C@H](CC(C)C)NC(=O)[C@H](Cc1ccccc1)NC(=O)[C@@H](NC(=O)[C@@H](NC(=O)[C@H](CC(N)=O)NC(=O)[C@@H](NC(=O)[C@H](CCC(N)=O)NC(=O)[C@H](CC(=O)O)NC(=O)[C@H](CC(C)C)NC(=O)[C@@H](N)CO)[C@@H](C)CC)C(C)C)[C@@H](C)O)C(=O)N[C@@H](CCCCN)C(=O)N[C@@H](CCCCN)C(=O)N[C@@H](CC(C)C)C(=O)N[C@@H](CCC(=O)O)C(=O)N[C@@H](CCC(=O)O)C(=O)N[C@@H](CO)C(=O)N[C@@H](Cc1ccc(O)cc1)C(=O)N[C@H](C(=O)N[C@@H](CC(=O)O)C(=O)N[C@@H](CC(C)C)C(=O)N[C@@H](CCCCN)C(=O)N[C@@H](CCC(=O)O)C(=O)N[C@@H](CC(C)C)C(=O)O)[C@@H](C)CC,SARS-CoV-2,"pseudovirus infection, inhibitor, luciferase","Caco-2, D614G pseudovirus","24 h, dual mutations",,IC50,409 nM

# For quick reference, copied from above:
Structure (SMILES),tested on,assay,test system,setting,how to read,endpoint,result
CC[C@H](C)[C@H](NC(=O)[C@H](C)NC(=O)[C@H](CCC(=O)O)NC(=O)[C@H](CCC(=O)O)NC(=O)[C@H](CC(C)C)NC(=O)[C@H](CCCCN)NC(=O)[C@H](CCCCN)NC(=O)[C@H](CCSC)NC(=O)[C@H](CCC(=O)O)NC(=O)[C@H](Cc1ccc(O)cc1)NC(=O)[C@H](CCC(=O)O)NC(=O)[C@H](CC(C)C)NC(=O)[C@H](CC(=O)O)NC(=O)[C@H](CC(C)C)NC(=O)[C@H](Cc1ccccc1)NC(=O)[C@H](Cc1ccc(O)cc1)NC(=O)[C@@H](NC(=O)[C@H](CC(N)=O)NC(=O)[C@@H](NC(=O)[C@H](CCC(N)=O)NC(=O)[C@H](CC(=O)O)NC(=O)[C@H](CC(C)C)NC(=O)[C@@H](N)CO)[C@@H](C)CC)C(C)C)C(=O)N[C@@H](CCCCN)C(=O)N[C@@H](CCCCN)C(=O)N[C@@H](CC(C)C)C(=O)N[C@@H](CCC(=O)O)C(=O)N[C@@H](CCC(=O)O)C(=O)N[C@@H](C)C(=O)N[C@@H](Cc1ccc(O)cc1)C(=O)N[C@H](C(=O)N[C@@H](CC(=O)O)C(=O)N[C@@H](CC(C)C)C(=O)N[C@@H](CCCCN)C(=O)N[C@@H](CCC(=O)O)C(=O)N[C@@H](CC(C)C)C(=O)O)[C@@H](C)CC,SARS-CoV-2 Gamma pseudovirus,"pseudovirus infection, inhibitor, luciferase",Caco-2,"24 h, dual mutations",,IC50,1190 nM
CNC(=O)CC1C(=O)N(C2CCN([C@H]3CC[C@@H](C(C)C)CC3)CC2)c2ccccc21 (stereo partly drawn),nociceptin receptor (human),BRET,,,"reference: N/OFQ as unbiased standard, G protein over β-arrestin 2",bias factor,0.16
